Measured values of several laboratories.
Numbered parts are unrelated; each lists some results of a single study. Positions count from the first letter of the parent shown.

Block 1
Target: CEP164, C-terminal peptide (human)
Method: DHFR complementation, deep sequencing
Sample: yeast
Setting: single substitutions, model-inferred values
Relative to: wild type
Direction: higher = weaker binding
Starting sequence: PDZK1, PDZ domain 2 (human); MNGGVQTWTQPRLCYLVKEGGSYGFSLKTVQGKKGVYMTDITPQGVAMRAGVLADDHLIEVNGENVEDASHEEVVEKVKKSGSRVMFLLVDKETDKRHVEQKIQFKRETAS; partner HNRVKVYRF
Variant | binding free energy change [kcal/mol]
L58K | 0.654
H98P | 0.0313
K92T | 0.066
E108C | -0.571
I103L | -0.107
V78D | 1.8
N2W | -0.0594
G24Q | 1.07
G24W | 1.12
S22H | 0.427
A50V | 0.326
D55G | -0.16
K77D | 0.655
A54G | 0.194
L13F | 0.0168
E93D | -0.0399
R97D | -0.000364
C14Q | 1.09
V17L | 0.426
G82W | 0.447
N62T | 0.625
Q6Y | -0.022
V52H | 1.43
K33W | 0.31
L89V | 0.12

Block 2
Target: CCNB1, cyclin fold, Cln2 fusion (human)
Method: yeast growth competition, sequencing
Sample: yeast
Setting: strong parent motif
Relative to: not given
Direction: higher = stronger binding
Starting sequence: INSM1 docking peptide (human); PKAIRKLHFEDEV; partner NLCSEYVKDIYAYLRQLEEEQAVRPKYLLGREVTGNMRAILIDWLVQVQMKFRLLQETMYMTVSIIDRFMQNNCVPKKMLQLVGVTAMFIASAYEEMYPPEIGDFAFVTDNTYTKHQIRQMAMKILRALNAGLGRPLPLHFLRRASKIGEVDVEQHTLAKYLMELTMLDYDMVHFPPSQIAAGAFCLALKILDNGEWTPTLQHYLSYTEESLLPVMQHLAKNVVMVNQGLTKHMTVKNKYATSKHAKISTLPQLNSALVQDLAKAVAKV
Variant | normalised enrichment score
PKAIRKLHFEDFV [E12F] | 1.1
PKAIRKLHWEDEV [F9W] | 1.03
PKAIRKLHFEDGV [E12G] | 1.28
PKAIFKLHFEDEV [R5F] | 0.458
PKAVRKLHFEDEV [I4V] | 3.13
PRAIRKLHFEDEV [K2R] | 2.42
PKAIRKQHFEDEV [L7Q] | -0.123
PKAIRKLHHEDEV [F9H] | 0.207
PKAIRKLHFECEV [D11C] | 1.49
PKAIRILHFEDEV [K6I] | 0.465
PKQIRKLHFEDEV [A3Q] | 0.32
PKAIKKLHFEDEV [R5K] | 1.78
PKAIRKLVFEDEV [H8V] | 3.42
PKAIRKLIFEDEV [H8I] | 3.48
PKAIRALHFEDEV [K6A] | 1.7
PKAIRKLHREDEV [F9R] | 0.138

Block 3
Substance: PhoQ, residues 284 288 289 292 302 303 TVTVVA
Method: Sort-seq
Refers to: YFP reporter
Sample: E. coli
Setting: PhoQ-PhoP variant library
Together with: 10 µM Mg2+
Relative to: high Mg2+ state
Direction: higher = stronger signaling
target | fold induction
PhoP, residues 12 14 15 18 19 TQALL (Escherichia coli, UniProt P23836) | 18.2
PhoP, residues 12 14 15 18 19 QYFSL (Escherichia coli, UniProt P23836) | 6.39
PhoP, residues 12 14 15 18 19 NYFRM (Escherichia coli, UniProt P23836) | 8.52

Block 4
Target: RING finger protein unkempt homolog, zinc fingers 1-6, SBP tag (UNK, Homo sapiens, UniProt Q9C0B0, residues 30-357)
Chain of UniProt Q9C0B0 (30-357, looked up): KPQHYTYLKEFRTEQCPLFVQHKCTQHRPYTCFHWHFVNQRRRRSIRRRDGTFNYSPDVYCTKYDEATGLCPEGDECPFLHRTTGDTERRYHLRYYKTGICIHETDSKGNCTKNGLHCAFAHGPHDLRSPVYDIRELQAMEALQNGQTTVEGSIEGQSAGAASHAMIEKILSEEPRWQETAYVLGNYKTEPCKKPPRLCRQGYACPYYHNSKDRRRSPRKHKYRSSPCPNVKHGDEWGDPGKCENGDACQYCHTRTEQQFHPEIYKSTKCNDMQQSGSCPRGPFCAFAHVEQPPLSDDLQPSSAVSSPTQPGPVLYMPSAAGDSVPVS
Method: RNA Bind-n-Seq
Form: RNA
Sample: in vitro
Concentration: 100 nM
Setting: RNA with constant flanks, vertebrate orthologous sites, ends assumed
Relative to: input RNA pool
Direction: higher = stronger binding
All sequences stand within: GGGAGUUCUACAGUCCGACGAUC … CAACAGAGGAUUGAGCAUCA
Sequence | bound/input enrichment [ratio]
CCCUCUGAACCCCAUAUCUUCCGUCUCAUAGUGCAGAAGUAGUCCUUUCGAUUAUAUUAUUAGUGGACUUGUUUUAAUUUUAGGGAAACUUUCAGUACAGAUAACUGUGAGCUUACAUGG | 2.08
AUGCCAUCCUCCUGGUGUGUGACUGCCAGUGAAGCAUCCACCAGCGCUGCAAGGGGUCCAGAGUAUUUUCUGCUGCCUCAGUCCCCAAUGCCUUCCAGCAGAAGUGGCGGCAGAUGGUUG | 0.219
CACAUCCGGUGAUAUUUGGCCUGGCCUUUCAGCUUAUGAUAAUAGUCCCAGAUCACCCCAUAGUCCUUCACCUAUUGCUACACCACCUAGUCAGAGUUCGUCUUGCUCUGAUGCUCCCAU | 1.13
GUUAGGUCAUGACCCCUACAGGUUAGGUCAUGAUGCUUACAGGUUAGGACAGGACCCUUACAGAUUAGGCCAUGAUCCCUACAGACUAACUCCUGAUCCCUAUAGGAUGUCACCUAGACC | 0.421
UAUCUUUAGGAUGAAGCUCUUACACCAAGUGUCACGAGUCUGGAGAACAGAUGGGUUGAGUAGUUGUUCUUACAAAUUAGUAUCUGUGGAACACAAUCCUUUGUAUGUCAACAUCACAGU | 0.542
UAAAUAAUCAGUUGAAUUGUAUUCUGAUCAAGUGUAACAUUGUGUAGCUUUUGUAUAAAACCAAGAAUGGGAGAAAUGGUCCAAAUAUCGGCUUUCUUGCUUUAAGAUCACCAGUGUCAG | 0.534
AAGUCAAUGCAGUCCCACUUACUCAAGCUGCAGCUGAAAGGCUAUCCCAGUACGUGUUGGUAGUUCCUGAGAGAGUUAUAGCUGGUGUUGCCUUGUGGUCUACCCCUUGUUUCAGGCCUC | 0.206
UCCCAGCACUUUGAUAAAAAGCGUGGACUGGUUGCUUGUAUUUUCCUUAUUCUUUUUAAUUAGUUUUAUUAUGUAUGCUACCAUUCGAACUGAGAGUAUUCGGUGGCUAAUUCCAGGACA | 3.75
GGUUGAUGUUUUGAAGAACCACUUAGUAAAAGAAGGUCGGGUAGAUGAAGAAAUUGCACUUAGAAUUAUCAAUGAGGGUGCUGCCAUUCUUCGGAGAGAGAAAACCAUGAUAGAAGUAGA | 0.815
AACAAACACGUUUCCACUGGGUUUUGCCUGAAAAAAAAAAAAAAAAUGUACCCGAGCACAUAGAGCUUUUUAAUAGCACUAACCAAUGCCUUUUUAGAUGUAUUUUUGAUGUAUAUAUCU | 1.1
CUCUUUUCCAGGUUGGAUGUACUGGAAAAGUCAUAGGAAUUGAUCACAUUAAAGAGCUAGUAGAUGACUCAGUAAAUAAUGUCAGGAAGGACGAUCCAACACUUCUGUCUUCAGGGAGAG | 0.676

Block 5
Target: CREB3L3, bZIP domain (human)
Method: DHFR protein complementation
Sample: yeast
Setting: single substitutions, most at no-binding floor
Relative to: wild-type JUN-FOS pair
Direction: higher = stronger binding
Starting sequence: JUN, bZIP domain (human); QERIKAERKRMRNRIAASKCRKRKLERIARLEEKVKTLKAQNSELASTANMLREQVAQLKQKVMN; partner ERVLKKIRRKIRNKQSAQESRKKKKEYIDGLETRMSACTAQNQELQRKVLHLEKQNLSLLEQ
Variant | binding fitness [natural log]
A49Q | -1.36
E54D | -1.53
S47D | -1.54
A40H | -1.53
N42L | -1.49
A49L | -1.43
Q41H | -1.45
L45M | -1.49
L38P | -1.48
R53S | -1.27
A49G | -1.46
L45W | -1.45
R30E | -1.39
K39Y | -1.48
I28G | -1.34
S47Q | -1.47
A49W | -1.47
L38A | -1.51
S43C | -1.46
I28W | -1.49
K39M | -1.25
K34A | -1.5
K34W | -1.41
M51H | -1.14
V56R | -1.45

A few entries again (block 2):
Variant | normalised enrichment score
PKAIRKLHHEDEV [F9H] | 0.207
PKAVRKLHFEDEV [I4V] | 3.13
PKAIRKLHFECEV [D11C] | 1.49
PKAIRKLHFEDFV [E12F] | 1.1
